Measurements from different studies.
Every numbered part comes from another study and shows a few of its results, in no order. Changes are numbered by the printed parent chain.

Block 1
Target: CCNB1, cyclin fold, Cln2 fusion (human)
Method: yeast growth competition, sequencing
Medium: yeast
Notes: weak parent motif
Baseline: not given
Direction: higher = stronger binding
Endpoint: normalised enrichment score
Starting sequence: WEE1 docking peptide (human); HKTFRKLRLFDTP
HKTFRKLRLLDTP [F10L]: 0.243
HKTFRKLRLFDLP [T12L]: -0.0244
HKTFRVLRLFDTP [K6V]: 0.617
HKTFRKLRLFDTF [P13F]: 0.357
HKTFRKLRLRDTP [F10R]: 1.15
HKTFRKLRLWDTP [F10W]: 0.746
HRTFRKLRLFDTP [K2R]: 0.922

Block 2
Molecule: PhoQ, residues 284 288 289 292 302 303 TTSMTC
Method: Sort-seq
Item: YFP reporter
Medium: E. coli
Notes: PhoQ-PhoP variant library
With: 10 µM Mg2+
Baseline: high Mg2+ state
Direction: higher = stronger signaling
Endpoint: fold induction
PhoP, residues 12 14 15 18 19 HHYTI (Escherichia coli, UniProt P23836): 16.7
PhoP, residues 12 14 15 18 19 AYFRS (Escherichia coli, UniProt P23836): 1.3
PhoP, residues 12 14 15 18 19 SFCSL (Escherichia coli, UniProt P23836): 18.2

Block 3
Target: Sal-like protein 4, full length isoform A (SALL4, Homo sapiens, UniProt Q9UJQ4, residues 1-1053)
UniProt Q9UJQ4, sequence (whole entry, looked up): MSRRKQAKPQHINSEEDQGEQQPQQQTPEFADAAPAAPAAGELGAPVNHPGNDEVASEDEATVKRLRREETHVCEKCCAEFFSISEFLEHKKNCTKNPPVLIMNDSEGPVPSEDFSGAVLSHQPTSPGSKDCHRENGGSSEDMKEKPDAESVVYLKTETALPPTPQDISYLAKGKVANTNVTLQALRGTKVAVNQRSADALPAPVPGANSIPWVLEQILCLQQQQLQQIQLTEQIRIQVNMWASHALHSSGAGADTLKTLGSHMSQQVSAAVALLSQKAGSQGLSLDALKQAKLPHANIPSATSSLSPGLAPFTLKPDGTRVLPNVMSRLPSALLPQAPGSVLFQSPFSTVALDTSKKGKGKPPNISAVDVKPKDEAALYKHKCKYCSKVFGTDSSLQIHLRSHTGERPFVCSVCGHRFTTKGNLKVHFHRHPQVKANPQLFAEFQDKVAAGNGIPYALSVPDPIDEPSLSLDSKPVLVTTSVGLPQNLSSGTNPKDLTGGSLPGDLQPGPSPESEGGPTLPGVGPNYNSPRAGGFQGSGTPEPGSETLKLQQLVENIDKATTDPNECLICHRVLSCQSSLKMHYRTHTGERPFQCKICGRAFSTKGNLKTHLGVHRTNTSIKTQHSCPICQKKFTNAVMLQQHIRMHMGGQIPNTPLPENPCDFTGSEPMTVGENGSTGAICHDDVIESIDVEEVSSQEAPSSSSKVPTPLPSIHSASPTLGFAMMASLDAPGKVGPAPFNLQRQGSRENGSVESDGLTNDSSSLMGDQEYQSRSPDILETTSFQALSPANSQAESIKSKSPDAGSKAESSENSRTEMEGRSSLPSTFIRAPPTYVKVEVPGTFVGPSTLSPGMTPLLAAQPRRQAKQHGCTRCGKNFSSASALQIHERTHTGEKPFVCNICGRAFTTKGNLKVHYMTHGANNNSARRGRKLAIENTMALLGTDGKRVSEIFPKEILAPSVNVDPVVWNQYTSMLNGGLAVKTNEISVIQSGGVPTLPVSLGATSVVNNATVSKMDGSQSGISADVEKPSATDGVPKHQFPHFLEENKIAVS
Method: universal PBM
Molecule type: double-stranded DNA, one strand shown
Medium: in vitro
Tested at: 600 nM
Notes: 8-mer, flanks averaged, mean of replicates
Direction: higher = stronger binding
Endpoint: E-score
AACATAGC: 0.172
GCGGTAGA: -0.156
CCCTATGA: 0.0289
CTTTTACA: 0.257
ACTTCGCC: -0.0875
AGTGGATC: -0.106
CCAATCGG: -0.188
AAGTACAC: 0.154
CCACAAAG: 0.0196

Block 4
Target: Fragile X messenger ribonucleoprotein 1, C-terminal low-complexity region (Fmr1, Mus musculus, UniProt P35922)
Method: RNA Bind-n-Seq
Molecule type: RNA
Medium: in vitro
Tested at: 200 nM
Notes: whole 134-nt RNA, ends assumed
With: 150 mM KCl
Baseline: input library
Direction: higher = stronger binding
Endpoint: log2 enrichment
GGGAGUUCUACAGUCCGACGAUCUAACUCUAGAGGAGGAUCUGAUGGAUAUGGCAGUGGACGUGGAUUUGGGGAUGGCUAUAAUGGGUAUGGAGGAGGACCUGGAGGUGGCAAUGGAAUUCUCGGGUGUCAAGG: 0.274
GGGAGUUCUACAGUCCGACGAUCGUUGUAGACACUCCUGGGAUCCUGGACCACCCUCUGGAGGAUAGGAACACCAUCGAGAUGCAGGCCAUCACUGCCCUGGCCCACCUCCGUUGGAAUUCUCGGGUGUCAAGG: 0.444
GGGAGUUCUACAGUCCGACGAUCCCUGUGCUACACAUCGUAUGUACCGAAUCAAAUUUUUUUAAAUUUUUAAAUUUUUUUAAAAAAGUAUUAUGUUACGCCGUUCGGAUCUGCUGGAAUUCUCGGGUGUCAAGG: -0.985
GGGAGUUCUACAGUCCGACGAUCUUCUGACUCAGAAUGUGCCAAAAAGGCUUUGGAACAACUUAAUGGAUUUGAACUAGCAGGAAGACCAAUGAAAGUUGGUCAUGUUACUGAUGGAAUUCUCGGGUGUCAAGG: -1.57
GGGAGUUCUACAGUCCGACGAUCCCUCAAGUCCUGUGCUACACAUCGUAUGUACCGAAUCGGGGUGGGUGGUGGGAAAGUAUUAUGUUACGCCGUUCGGAUCUGCACUUCCAGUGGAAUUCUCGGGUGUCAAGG: 1.24
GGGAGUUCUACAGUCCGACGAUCUGGGAGGUGGAUUUUGUUUAUUUUUUUAGCUCAUUUGCAGGGGUGGGAAUUUUUUUUUAAUAUGUGUCAUGAAUAAAGUUGUUUUUGAAAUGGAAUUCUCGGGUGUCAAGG: 0.354
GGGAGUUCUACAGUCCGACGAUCUCCUGUGCUACACAUCGUAUGUACCGAAUCGGGGAAAAAGGGGUGGGGUUUUUUUGGGGAAAGUAUUAUGUUACGCCGUUCGGAUCUGCAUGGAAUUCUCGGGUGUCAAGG: 0.712
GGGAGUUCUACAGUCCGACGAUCUCAAGUCCUGUGCUACACAUCGUAUGUACCGAAUCGGGCCCGGCCCGGCCCGGGGAAAGUAUUAUGUUACGCCGUUCGGAUCUGCACUUCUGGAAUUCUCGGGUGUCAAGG: -0.664
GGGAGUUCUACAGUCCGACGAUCUCAAGUCCUGUGCUACACAUCGUAUGUACCGAAUCGGGGAAGGAAGGGGAAGGGAAAGUAUUAUGUUACGCCGUUCGGAUCUGCACUUCCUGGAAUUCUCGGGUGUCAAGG: 0.797
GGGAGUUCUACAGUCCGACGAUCUAACUUUAGAGGAGGAUCUGAUGGAUAUGGCAGUGGACGUGGAUUUGGGGAUGGCUAUAAUGGGUAUGGAGGAGGAUCUGGAGGUGGCAAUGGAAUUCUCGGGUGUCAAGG: 0.229
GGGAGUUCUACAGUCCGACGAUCUGGGAGGUGGAUUUUGUUUAUUUUUUUAGCUCAUUUCCAGCGGUGGGAAUUUUUUUUUAAUAUGUGUCAUGAAUAAAGUUGUUUUUGAAAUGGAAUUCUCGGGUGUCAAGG: 0.226

A few entries again (block 3):
CCAATCGG: -0.188
GCGGTAGA: -0.156
ACTTCGCC: -0.0875
AGTGGATC: -0.106
